Results of several laboratories.
A part holds a random share of what one study measured. Several values in a cell are separate wells, animals, samples, runs or records.
Chain of UniProt Q9HAZ1 (whole entry, looked up): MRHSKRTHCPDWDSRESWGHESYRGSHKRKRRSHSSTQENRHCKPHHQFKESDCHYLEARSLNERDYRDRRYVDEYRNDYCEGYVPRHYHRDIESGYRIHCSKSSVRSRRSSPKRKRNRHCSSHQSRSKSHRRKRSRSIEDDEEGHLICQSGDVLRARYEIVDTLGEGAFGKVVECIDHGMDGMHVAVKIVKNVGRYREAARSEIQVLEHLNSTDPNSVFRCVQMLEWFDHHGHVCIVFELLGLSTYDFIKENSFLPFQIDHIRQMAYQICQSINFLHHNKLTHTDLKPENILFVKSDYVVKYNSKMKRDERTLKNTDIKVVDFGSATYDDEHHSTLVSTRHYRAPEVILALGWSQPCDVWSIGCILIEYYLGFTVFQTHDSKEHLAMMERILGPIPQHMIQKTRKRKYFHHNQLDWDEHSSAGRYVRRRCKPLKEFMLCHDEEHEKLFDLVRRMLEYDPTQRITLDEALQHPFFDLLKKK
Chain of UniProt Q7KZI7 (whole entry, looked up): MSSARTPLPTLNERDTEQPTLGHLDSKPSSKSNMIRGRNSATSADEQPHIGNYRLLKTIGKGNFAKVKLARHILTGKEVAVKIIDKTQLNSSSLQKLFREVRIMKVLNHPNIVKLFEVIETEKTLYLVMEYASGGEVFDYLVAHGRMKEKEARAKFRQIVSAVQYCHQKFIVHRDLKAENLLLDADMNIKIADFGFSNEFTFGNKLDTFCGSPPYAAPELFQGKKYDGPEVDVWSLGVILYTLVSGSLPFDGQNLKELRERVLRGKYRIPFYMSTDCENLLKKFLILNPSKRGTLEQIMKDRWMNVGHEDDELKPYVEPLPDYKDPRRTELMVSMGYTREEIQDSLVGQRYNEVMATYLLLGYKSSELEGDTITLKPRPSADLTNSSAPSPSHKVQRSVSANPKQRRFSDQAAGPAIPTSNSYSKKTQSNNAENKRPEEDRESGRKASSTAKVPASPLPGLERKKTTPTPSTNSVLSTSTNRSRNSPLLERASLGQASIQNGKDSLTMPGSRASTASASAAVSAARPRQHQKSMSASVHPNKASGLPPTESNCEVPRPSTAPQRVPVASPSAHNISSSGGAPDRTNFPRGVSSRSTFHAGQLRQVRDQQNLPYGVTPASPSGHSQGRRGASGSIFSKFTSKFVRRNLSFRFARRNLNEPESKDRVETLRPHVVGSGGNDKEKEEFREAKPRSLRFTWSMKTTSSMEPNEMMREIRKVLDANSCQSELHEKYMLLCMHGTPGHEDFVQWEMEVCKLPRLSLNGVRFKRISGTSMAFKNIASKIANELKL
Chain of UniProt P42681 (whole entry, looked up): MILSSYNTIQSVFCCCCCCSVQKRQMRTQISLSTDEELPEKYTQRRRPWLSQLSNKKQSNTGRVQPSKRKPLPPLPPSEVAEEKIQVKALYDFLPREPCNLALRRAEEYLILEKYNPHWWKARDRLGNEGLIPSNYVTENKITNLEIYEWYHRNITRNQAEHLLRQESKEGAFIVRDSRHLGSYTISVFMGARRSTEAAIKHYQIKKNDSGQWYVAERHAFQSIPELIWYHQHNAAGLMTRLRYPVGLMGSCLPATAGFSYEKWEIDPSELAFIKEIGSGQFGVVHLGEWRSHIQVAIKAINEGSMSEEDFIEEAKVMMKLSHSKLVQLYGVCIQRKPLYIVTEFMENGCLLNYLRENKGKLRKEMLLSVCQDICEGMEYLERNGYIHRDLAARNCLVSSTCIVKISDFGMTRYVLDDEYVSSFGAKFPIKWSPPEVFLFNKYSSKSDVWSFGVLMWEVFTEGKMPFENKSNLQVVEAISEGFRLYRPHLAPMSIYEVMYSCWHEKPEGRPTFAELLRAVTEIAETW
Chain of UniProt Q16566 (whole entry, looked up): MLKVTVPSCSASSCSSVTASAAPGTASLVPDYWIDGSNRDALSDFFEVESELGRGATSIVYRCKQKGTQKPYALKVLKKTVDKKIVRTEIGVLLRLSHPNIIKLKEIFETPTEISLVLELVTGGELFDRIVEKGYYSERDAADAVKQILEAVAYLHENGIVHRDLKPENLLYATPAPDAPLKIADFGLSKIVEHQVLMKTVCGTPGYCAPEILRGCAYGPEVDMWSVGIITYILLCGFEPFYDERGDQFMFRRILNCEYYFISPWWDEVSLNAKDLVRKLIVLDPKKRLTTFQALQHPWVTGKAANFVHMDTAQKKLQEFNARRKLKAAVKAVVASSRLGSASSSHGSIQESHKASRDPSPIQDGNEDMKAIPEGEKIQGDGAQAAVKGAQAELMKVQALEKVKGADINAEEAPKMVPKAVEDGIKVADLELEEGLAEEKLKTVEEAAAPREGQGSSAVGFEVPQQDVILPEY
Chain of UniProt P35968 (whole entry, looked up): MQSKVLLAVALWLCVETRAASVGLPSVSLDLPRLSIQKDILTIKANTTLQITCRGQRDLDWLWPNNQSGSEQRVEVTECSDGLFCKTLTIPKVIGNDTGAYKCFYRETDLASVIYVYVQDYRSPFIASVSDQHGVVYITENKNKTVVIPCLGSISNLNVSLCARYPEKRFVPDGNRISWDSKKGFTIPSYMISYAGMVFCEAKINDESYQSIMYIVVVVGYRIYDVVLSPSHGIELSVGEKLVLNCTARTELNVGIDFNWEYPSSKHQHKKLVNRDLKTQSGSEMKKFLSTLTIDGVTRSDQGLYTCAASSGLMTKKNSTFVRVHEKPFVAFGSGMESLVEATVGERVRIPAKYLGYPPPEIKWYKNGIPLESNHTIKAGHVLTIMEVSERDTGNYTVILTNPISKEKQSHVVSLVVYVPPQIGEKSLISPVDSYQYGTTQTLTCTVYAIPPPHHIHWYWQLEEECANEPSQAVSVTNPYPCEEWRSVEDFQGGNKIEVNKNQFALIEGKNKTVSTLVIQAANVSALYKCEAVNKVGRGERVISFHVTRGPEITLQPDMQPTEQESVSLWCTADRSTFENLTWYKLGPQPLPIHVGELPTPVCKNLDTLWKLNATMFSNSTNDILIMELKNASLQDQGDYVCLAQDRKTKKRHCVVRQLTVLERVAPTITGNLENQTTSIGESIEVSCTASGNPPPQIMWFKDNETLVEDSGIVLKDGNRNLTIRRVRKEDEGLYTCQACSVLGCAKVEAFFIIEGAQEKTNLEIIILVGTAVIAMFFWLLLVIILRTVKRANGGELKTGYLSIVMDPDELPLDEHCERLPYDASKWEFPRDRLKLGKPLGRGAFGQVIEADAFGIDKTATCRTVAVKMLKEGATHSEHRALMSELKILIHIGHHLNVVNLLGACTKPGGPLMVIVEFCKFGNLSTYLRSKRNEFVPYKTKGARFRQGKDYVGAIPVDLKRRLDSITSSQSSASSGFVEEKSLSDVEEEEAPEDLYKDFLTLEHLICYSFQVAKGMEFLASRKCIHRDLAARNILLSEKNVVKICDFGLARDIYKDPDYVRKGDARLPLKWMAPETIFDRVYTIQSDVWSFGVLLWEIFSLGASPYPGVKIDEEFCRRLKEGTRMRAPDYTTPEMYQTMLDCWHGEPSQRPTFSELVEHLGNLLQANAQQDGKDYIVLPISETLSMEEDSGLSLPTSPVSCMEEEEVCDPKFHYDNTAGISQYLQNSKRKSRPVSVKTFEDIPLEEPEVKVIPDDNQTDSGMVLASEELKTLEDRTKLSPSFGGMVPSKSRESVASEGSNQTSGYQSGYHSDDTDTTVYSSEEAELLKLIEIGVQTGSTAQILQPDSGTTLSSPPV
Chain of UniProt P32298 (whole entry, looked up): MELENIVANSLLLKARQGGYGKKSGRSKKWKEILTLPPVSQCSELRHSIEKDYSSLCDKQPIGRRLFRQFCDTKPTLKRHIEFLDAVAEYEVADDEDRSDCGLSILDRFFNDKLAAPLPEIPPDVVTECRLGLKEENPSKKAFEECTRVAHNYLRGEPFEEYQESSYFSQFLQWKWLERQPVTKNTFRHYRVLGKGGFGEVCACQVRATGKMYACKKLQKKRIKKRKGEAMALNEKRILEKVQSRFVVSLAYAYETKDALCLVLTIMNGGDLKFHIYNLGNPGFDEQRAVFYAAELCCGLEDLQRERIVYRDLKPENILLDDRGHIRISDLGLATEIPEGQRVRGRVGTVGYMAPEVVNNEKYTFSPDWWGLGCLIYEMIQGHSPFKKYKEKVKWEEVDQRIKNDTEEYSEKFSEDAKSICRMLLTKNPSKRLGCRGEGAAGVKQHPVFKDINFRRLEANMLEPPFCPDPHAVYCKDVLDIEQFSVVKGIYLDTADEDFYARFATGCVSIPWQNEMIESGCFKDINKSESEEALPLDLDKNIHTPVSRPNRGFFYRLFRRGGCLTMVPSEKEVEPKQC
Chain of UniProt P28482 (whole entry, looked up): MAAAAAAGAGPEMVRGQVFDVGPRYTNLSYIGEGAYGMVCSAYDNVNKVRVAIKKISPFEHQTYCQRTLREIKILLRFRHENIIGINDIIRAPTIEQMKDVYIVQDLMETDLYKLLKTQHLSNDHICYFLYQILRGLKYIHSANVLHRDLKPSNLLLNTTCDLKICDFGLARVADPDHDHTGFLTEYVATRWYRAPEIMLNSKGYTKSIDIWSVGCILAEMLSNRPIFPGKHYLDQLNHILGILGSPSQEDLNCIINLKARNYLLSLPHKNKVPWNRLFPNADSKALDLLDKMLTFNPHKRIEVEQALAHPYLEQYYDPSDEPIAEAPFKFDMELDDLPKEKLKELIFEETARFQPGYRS

Set 1 — effect on: kinase–CDC37 interaction
SMILES: CCCS(=O)(=O)Nc1ccc(F)c(C(=O)c2c[nH]c3ncc(-c4ccc(Cl)cc4)cc23)c1F
target | mode | cell line | setting | EC50
Serine/threonine-protein kinase A-Raf (ARAF, Homo sapiens, UniProt P10398) | inhibitor | human cells | kinome plate 1@A11 | 0.29 µM
Platelet-derived growth factor receptor alpha (PDGFRA, Homo sapiens, UniProt P16234) | inhibitor | human cells | FIP1L1-PDGFRA fusion kinase | 5.38 µM
Myosin light chain kinase family member 4 (MYLK4, Homo sapiens, UniProt Q86YV6) |  |  |  | 1.07 µM

Set 2 — cell line: mouse MPNST tumor cells; technique: high-content nuclear imaging; measured: cell number; concentration: 10 µM; time: 12 h; setting: mean of 2 replicates; baseline: plate mean; direction: higher = more cells
Structure (SMILES) | nuclei count
C[C@H]1CC(=O)Nc2cc(C(=O)NCCC3CC3)ccc2N1C(=O)N1CC2CC2C1 (stereo partly shown) | 0.903 z-score
Fc1ccc(C(c2ccc(F)cc2)N2CCN(C/C=C/c3ccccc3)CC2)cc1 | 1.59 z-score and 1.96 z-score
CCOC(=O)Nc1cc(-c2ccc(C)c(NS(C)(=O)=O)c2)nn2c(C)nnc12 | -2.8 z-score
CCOC(=O)N1c2ccc(C(F)(F)F)cc2[C@@H](N(Cc2cc(C(F)(F)F)cc(C(F)(F)F)c2)C(=O)OC)C[C@H]1CC | 4.23 z-score
CN(C)CCn1nnnc1SCC1=C(C(=O)O)N2C(=O)[C@@H](NC(=O)Cc3csc(N)n3)[C@H]2SC1 | -0.0529 z-score
CCN(CC)C(C)CN1c2ccccc2Sc2ccccc21 (stereo not shown) | 1.61 z-score
Cc1cnc(NC(=O)c2cc(Oc3cnc(C(=O)N(C)C)nc3)c3cc(C)oc3c2)cn1 | 2.31 z-score

Set 3 — Structure (SMILES): CCCCc1c(-c2ccc(OC)cc2)[nH]c2nccnc12; effect on: enzyme activity; mode: inhibitor; concentration: 0.5 µM; baseline: control
target | remaining activity [%]
Dual specificity protein kinase CLK3 (CLK3, Homo sapiens, UniProt P49761) | 116
Vascular endothelial growth factor receptor 2 (KDR, Homo sapiens, UniProt P35968) | 88.8
Mitogen-activated protein kinase 14 (MAPK14, Homo sapiens, UniProt Q16539) | 112
Calcium/calmodulin-dependent protein kinase type 1B (PNCK, Homo sapiens, UniProt Q6P2M8) | 120
G protein-coupled receptor kinase 4 (GRK4, Homo sapiens, UniProt P32298) | 96.7
Calcium/calmodulin-dependent protein kinase type IV (CAMK4, Homo sapiens, UniProt Q16566) | 97.6
Mitogen-activated protein kinase 1 (MAPK1, Homo sapiens, UniProt P28482) | 103
cGMP-dependent protein kinase 2 (PRKG2, Homo sapiens, UniProt Q13237) | 93.9
Tyrosine-protein kinase TXK (TXK, Homo sapiens, UniProt P42681) | 72.7
Dual specificity protein kinase CLK4 (CLK4, Homo sapiens, UniProt Q9HAZ1) | 73.2
Hepatocyte growth factor receptor (MET, Homo sapiens, UniProt P08581) | 86.8
Serine/threonine-protein kinase MARK2 (MARK2, Homo sapiens, UniProt Q7KZI7) | 83.1
Serine/threonine-protein kinase PLK3 (PLK3, Homo sapiens, UniProt Q9H4B4) | 91.5

Set 4 — effect on: ligand displacement; concentration: 10 µM
Target: D(2) dopamine receptor (DRD2, Homo sapiens, UniProt P14416)
Chain of UniProt P14416 (whole entry, looked up): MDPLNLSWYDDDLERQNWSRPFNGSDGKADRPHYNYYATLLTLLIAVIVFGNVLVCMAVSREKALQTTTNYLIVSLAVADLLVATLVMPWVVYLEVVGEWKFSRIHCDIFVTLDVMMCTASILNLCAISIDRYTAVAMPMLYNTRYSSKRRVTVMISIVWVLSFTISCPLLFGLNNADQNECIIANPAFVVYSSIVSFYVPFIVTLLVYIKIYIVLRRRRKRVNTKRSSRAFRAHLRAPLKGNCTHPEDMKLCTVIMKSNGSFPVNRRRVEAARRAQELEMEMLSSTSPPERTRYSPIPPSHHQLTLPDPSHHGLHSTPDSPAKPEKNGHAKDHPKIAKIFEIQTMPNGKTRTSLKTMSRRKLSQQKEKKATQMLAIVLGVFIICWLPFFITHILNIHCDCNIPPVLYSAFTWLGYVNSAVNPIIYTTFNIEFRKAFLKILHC
SMILES | inhibition [%]
CNC(=N)NCCC[C@H](NC(=O)[C@H](CC(C)C)NC(=O)NNC(=O)[C@H](Cc1ccccc1)NC(=O)[C@H](CO)NC(=O)[C@H](CC(N)=O)NC(=O)[C@@H](Cc1ccncc1)NC(=O)[C@H](N)Cc1ccc(O)cc1)C(=O)N[C@@H](Cc1ccccc1)C(N)=O | 0.859
COc1cc(C(=O)O)ncc1C#Cc1ccccc1NS(=O)(=O)c1cccc2c(N(C)C)ccnc12 | -0.32
O=C(N[C@H]1CCCCC/C=C\C2C[C@@]2(C(=O)O)NC(=O)[C@@H]2C[C@@H](Oc3ccncc3)CN2C1=O)OC1CCCC1 (stereo partly shown) | -17
Cc1c(NC(=O)c2cc(C(N)=O)nc3cc(F)ccc23)c(C(F)(F)F)nn1Cc1ccc(C#N)cc1 | 8.73
CN1CCN(c2ccnc(NCCc3ccccc3)n2)CC1 | 20.6
